Published values gathered from unrelated publications.
Parts stem from different laboratories: compare values within a part only. Substitutions count along the parent as printed.

Series 1
Target: Fragile X messenger ribonucleoprotein 1, C-terminal low-complexity region (Fmr1, Mus musculus, UniProt P35922)
Technique: RNA Bind-n-Seq
Form: RNA
Matrix: in vitro
Concentration: 200 nM
Notes: whole 134-nt RNA, ends assumed
Added: 150 mM LiCl
Relative to: input library
Reading: higher = stronger binding
Endpoint: log2 enrichment
Library: 7-deaza-guanosine replaces G
Oligonucleotide = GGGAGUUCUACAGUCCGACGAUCCAAGUCCUGUGCUACACAUCGUAUGUACCGAAUCGGGUUUUUGGGAAAGGGUGGGAAAGUAUUAUGUUACGCCGUUCGGAUCUGCACUUCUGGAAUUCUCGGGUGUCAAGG; value = -1.02
Oligonucleotide = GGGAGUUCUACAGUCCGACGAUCGCAGGAAGUAAAAACAAAUGGAAAUGCUUCGGAUAGUGGCAGGGGUGGGGGUUGCUAAGGAAACGGUGGGAUGGGAGUGGGUAAAGAGUUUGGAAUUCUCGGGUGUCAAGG; value = 1.42
Oligonucleotide = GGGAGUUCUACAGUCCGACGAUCCUGUGCUACACAUCGUAUGUACCGAAUCGGGGUUUUUUUGGUUUUUUUGGGGUUUUUUUGGGAAAGUAUUAUGUUACGCCGUUCGGAUCUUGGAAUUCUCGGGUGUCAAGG; value = 0.766
Oligonucleotide = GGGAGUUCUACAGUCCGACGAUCUGGCCUUAUCACUCCUGGAGGCUUUUCAUCAGUGCCUGCUGGAAUGGAGACCCCUGAACUCAUUGAGCUGAGGAAGAAGAAGAUUGAGGAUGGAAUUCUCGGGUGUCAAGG; value = -0.648
Oligonucleotide = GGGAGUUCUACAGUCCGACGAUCUCCUGUGCUACACAUCGUAUGUACCGAAUCGGGGAAAAAGGGGAAAAAGGGGUUUGGGGAAAGUAUUAUGUUACGCCGUUCGGAUCUGCAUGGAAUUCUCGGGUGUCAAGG; value = -0.408
Oligonucleotide = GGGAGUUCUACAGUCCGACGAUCGUCCUGUGCUACACAUCGUAUGUACCGAAUCGGGUUUUUGGUUUUUGGGUUUUUGGGGAAAGUAUUAUGUUACGCCGUUCGGAUCUGCACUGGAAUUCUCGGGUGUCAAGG; value = -1.17
Oligonucleotide = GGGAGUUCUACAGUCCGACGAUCAGUCCUGUGCUACACAUCGUAUGUACCGAAUCGGGAAAAAAAGGGUGGGUUUUUGGGAAAGUAUUAUGUUACGCCGUUCGGAUCUGCACUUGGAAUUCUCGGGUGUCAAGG; value = -2.41
Oligonucleotide = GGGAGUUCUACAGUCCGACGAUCUAACUUUAGAGGAGGAUCUGAUGGAUAUGGCAGUGGACGUGGAGUUGGGGAUGGCUAUAAUGGGUAUGGAGGAGGACCUGGAGGUGGCAAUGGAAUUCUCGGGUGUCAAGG; value = -0.0518
Oligonucleotide = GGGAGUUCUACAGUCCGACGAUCCCUGUGCUACACAUCGUAUGUACCGAAUCGGGGUUUUUUUGGGGUUUUUUUGGGGAGGGGAAAGUAUUAUGUUACGCCGUUCGGAUCUGCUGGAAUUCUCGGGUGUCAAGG; value = 0.384
Oligonucleotide = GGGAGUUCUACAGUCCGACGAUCCCUCAAGUCCUGUGCUACACAUCGUAUGUACCGAAUCGGGCGGGGCGGCGGGAAAGUAUUAUGUUACGCCGUUCGGAUCUGCACUUCCAGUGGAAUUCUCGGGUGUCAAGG; value = -0.464
Oligonucleotide = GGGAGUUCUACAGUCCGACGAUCAUUAAUUUGUACACAGACAGGGAAACUGGCAAGCUGAAGGGAGAGGCAACGGUCUCUUUUGAUGACCCACCUUCAGCUAAAGCAGCUAUUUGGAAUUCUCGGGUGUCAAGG; value = -2.27

Series 2
Target: Interferon regulatory factor 5, full length, phosphomimetic (IRF5, Homo sapiens, UniProt Q13568-2, residues 1-514, S451D/S453D/S456D/S462D)
Technique: protein-binding microarray
Form: double-stranded DNA, one strand shown
Matrix: in vitro
Concentration: 940 nM top
Notes: 60-bp whole probe
Added: salmon DNA 0.4 mg/ml
Relative to: random background probes
Reading: higher = stronger binding
Endpoint: fitted relative affinity
All sequences stand within: GCCTAGCAC … GTCTTGATTCGCTTGACGCTGCTG
Oligonucleotide = ATGAAAATCTCAATGGGTTAGTGCTAG; value = -0.0564 z-score
Oligonucleotide = TTCATTATTGTTTCCTTCCTGTGCTAG; value = 1.79 z-score
Oligonucleotide = TTAGGTTTCCTTCTGCTTTAGTGCTAG; value = 2.12 z-score
Oligonucleotide = CTTTACATGGGTTTTCAGCTGGTGCTA; value = -0.0577 z-score
Oligonucleotide = TCAGAACTGGGGTATCGATTAGTGCTA; value = 2.7 z-score
Oligonucleotide = GTCACATTGTGCAATCTTAATGTGCTA; value = 0.0075 z-score
Oligonucleotide = CTAGAACTGAGACTGGATTAGTGCTAG; value = -0.128 z-score
Oligonucleotide = TCATCTCCCCCATCTTGTACTGTGCTA; value = 0.631 z-score
Oligonucleotide = GACAGTTTCGGACTGGGGACGTGCTAG; value = 6.49 z-score
Oligonucleotide = GACGGTCTCCTTCGCCTGACGTGCTAG; value = 0.149 z-score
Oligonucleotide = GTCGGACTGGGGACTGGGGACGTGCTA; value = 0.0363 z-score
Oligonucleotide = GACGGTCTCCTTTTACTGACGTGCTAG; value = 0.755 z-score
Oligonucleotide = TTAAAAAAAAAAAACTGTAACGTGCTA; value = -0.0535 z-score
Oligonucleotide = GAAGATATCAGTCTCGAGACGTGCTAG; value = 0.942 z-score
Oligonucleotide = GACGATTTCGGGTCTCGAGACGTGCTA; value = 0.814 z-score
Oligonucleotide = GACGGACTGAACTTTCGGGACGTGCTA; value = -0.124 z-score
Oligonucleotide = GACGGTTTCGGCTTTCGGGACGTGCTA; value = 8.89 z-score
Oligonucleotide = TCATATATGACAATGATACTGTGCTAG; value = 0.18 z-score
Oligonucleotide = TAAGATCTCAGTTTCGATTAGTGCTAG; value = 7.81 z-score
Oligonucleotide = TCATTTTTTTTTTCATCACTGTGCTAG; value = 1.72 z-score
Oligonucleotide = TTAGATATCAGTCCCGATTAGTGCTAG; value = 0.26 z-score
Oligonucleotide = TATGTTCCCTATTTAAGGCTGTGCTAG; value = 0.467 z-score
Oligonucleotide = TTATCAATCATTTTCGTTTTGTGCTAG; value = 1.56 z-score
Oligonucleotide = TTAGGACTACTTATCCTTTAGTGCTAG; value = -0.357 z-score
Oligonucleotide = GACGGACTGGGACTGGGGCCGTGCTAG; value = -0.399 z-score

Series 3
Target: CCNA1, cyclin fold, Cln2 fusion (human)
Technique: yeast growth competition, sequencing
Matrix: yeast
Notes: weak parent motif
Relative to: not given
Reading: higher = stronger binding
Endpoint: normalised enrichment score
Parent: CDKN1A docking peptide (human); SKACRRLFGPVDS; partner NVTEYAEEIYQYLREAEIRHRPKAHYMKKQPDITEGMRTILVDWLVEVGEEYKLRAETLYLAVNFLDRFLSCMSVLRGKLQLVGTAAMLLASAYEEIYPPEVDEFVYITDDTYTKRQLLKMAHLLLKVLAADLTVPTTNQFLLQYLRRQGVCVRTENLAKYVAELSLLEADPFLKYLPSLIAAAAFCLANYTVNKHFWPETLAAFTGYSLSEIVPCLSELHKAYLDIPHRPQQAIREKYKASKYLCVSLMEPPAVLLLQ
Change = SKAHRRLFGPVDS [C4H]; value = 0.624
Change = SKACRRLFAPVDS [G9A]; value = 0.661
Change = SKDCRRLFGPVDS [A3D]; value = -0.0557
Change = SKACRRLFGPHDS [V11H]; value = 0.301
Change = SKACRRLFQPVDS [G9Q]; value = 0.567
Change = SKACRRLFGPYDS [V11Y]; value = 0.7
Change = SKACWRLFGPVDS [R5W]; value = -0.116
Change = SKACRRLFGPVES [D12E]; value = 0.33
Change = SKACTRLFGPVDS [R5T]; value = -0.102
Change = SKACRRLFGPVSS [D12S]; value = 0.153
Change = SKACKRLFGPVDS [R5K]; value = 0.316

Series 4
Target: ABI1, truncated, D143A, DHFR fusion (Arabidopsis thaliana)
Technique: DHFR PCA, deep sequencing
Matrix: yeast
Notes: methotrexate growth selection, single substitutions
Added: (+)-ABA 1.4 µM
Relative to: wild-type fitted maximum
Reading: higher = stronger binding
Endpoint: relative binding score
Parent: PYL1, truncated, DHFR fusion (Arabidopsis thaliana); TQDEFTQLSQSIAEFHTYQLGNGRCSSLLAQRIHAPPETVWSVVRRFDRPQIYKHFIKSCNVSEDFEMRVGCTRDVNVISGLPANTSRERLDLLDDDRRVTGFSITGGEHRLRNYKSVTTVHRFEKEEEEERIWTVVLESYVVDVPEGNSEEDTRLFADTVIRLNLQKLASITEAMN
Change = V62A; value = 8.29%
Change = V44E; value = -20.7%
Change = D144V; value = -5.17%
Change = P50I; value = -10.8%
Change = E128H; value = 67.9%
Change = N114L; value = 0.493%
Change = D65H; value = 42.8%
Change = L138I; value = 1.61%
Change = S63R; value = 50.3%
Change = L20H; value = 75.6%
Change = E109F; value = -0.515%
Change = P50Q; value = -12.4%
Change = A35M; value = -6.47%
Change = S117D; value = -5.25%
Change = N77G; value = 38.1%
Change = A13Y; value = 5.26%

Series 5
Target: Histone acetyltransferase KAT6A, winged helix 2, GST fusion (KAT6A, Homo sapiens, UniProt Q92794, residues 85-181)
Technique: protein binding microarray
Form: double-stranded DNA, one strand shown
Matrix: in vitro
Concentration: not given
Notes: 8-mer, flanks averaged, mean of 2 arrays, mostly near background
Relative to: not given
Reading: higher = stronger binding
Endpoint: E-score
Target sequence (chain): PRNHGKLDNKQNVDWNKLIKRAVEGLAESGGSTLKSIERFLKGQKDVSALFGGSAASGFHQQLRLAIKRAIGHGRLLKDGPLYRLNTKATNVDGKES
Oligonucleotide = AAAGGGAA; value = -0.0306
Oligonucleotide = GATTTCCA; value = -0.0179
Oligonucleotide = AGATCGTG; value = -0.169
Oligonucleotide = CTCGTCCC; value = 0.0659
Oligonucleotide = CAAGTATC; value = -0.215
Oligonucleotide = AGCTTCTA; value = -0.104
Oligonucleotide = CCGACTAA; value = -0.145
Oligonucleotide = AAATCCCT; value = 0.0365
Oligonucleotide = ATGGATCA; value = -0.0922
Oligonucleotide = ACTGCGAC; value = 0.198
Oligonucleotide = CATTCCGG; value = 0.0371
Oligonucleotide = AGCACCTG; value = 0.193
Oligonucleotide = ATCCCCTC; value = -0.0733
Oligonucleotide = CCGGCCCC; value = 0.0963
Oligonucleotide = TTAGATAA; value = 0.000425
Oligonucleotide = TATGCAAA; value = -0.0408

A few entries again (series 3):
Change = SKACRRLFAPVDS [G9A]; value = 0.661
Change = SKACRRLFGPYDS [V11Y]; value = 0.7
Change = SKACWRLFGPVDS [R5W]; value = -0.116
Change = SKACKRLFGPVDS [R5K]; value = 0.316
Change = SKDCRRLFGPVDS [A3D]; value = -0.0557
